# Measured values collected from several papers.
# Every numbered part comes from another study and shows a few of its results, in no order. Changes are numbered by the printed parent chain.

# Set 1
# Target: ABI1, truncated, D143A, DHFR fusion (Arabidopsis thaliana)
# Method: DHFR PCA, deep sequencing
# Medium: yeast
# Notes: methotrexate growth selection, single substitutions
# Together with: (+)-ABA 2500 µM
# Relative to: wild-type fitted maximum
# Reading: higher = stronger binding
# Starting sequence: PYL1, truncated, DHFR fusion (Arabidopsis thaliana); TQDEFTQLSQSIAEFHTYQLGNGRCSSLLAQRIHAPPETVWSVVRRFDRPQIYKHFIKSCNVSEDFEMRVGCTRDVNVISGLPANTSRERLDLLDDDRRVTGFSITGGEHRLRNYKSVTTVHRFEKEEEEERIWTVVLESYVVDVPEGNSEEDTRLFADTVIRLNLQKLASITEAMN
Variant,relative binding score [%]
D65N,97.7
E139M,92.5
D75S,99.3
S42E,107
S59C,95.9
N177V,93.6
K116F,70.6
S171T,93.8
N114P,39.2
I172A,88.5
E130M,104
S150T,94.9
V137S,11.9
L164N,98.2
S104V,89.6
E174Q,90.7
H55G,94.5
P36Q,94.7
P36C,103
F124H,92.7
L169A,45.4
H16Q,53.3
R88M,93.2
S140M,31.4
R111I,65.8

# Set 2
# Target: Histone acetyltransferase KAT6A, winged helix 1, GST fusion (KAT6A, Homo sapiens, UniProt Q92794, residues 1-85)
# Method: protein binding microarray
# Molecule type: double-stranded DNA, one strand shown
# Medium: in vitro
# Concentration: not given
# Notes: 8-mer, flanks averaged, mean of 2 arrays, mostly near background
# Relative to: not given
# Reading: higher = stronger binding
# Target sequence (chain): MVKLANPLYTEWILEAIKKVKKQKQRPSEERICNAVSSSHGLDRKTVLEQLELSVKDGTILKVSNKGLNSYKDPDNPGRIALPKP
Oligonucleotide,E-score
ACCACTCA,-0.179
ATCGGCAC,0.246
AGTGTCAC,-0.0742
CGAGACAA,-0.147
CGGCGAAA,0.302
GGCTACAC,0.0281
ACGGTAAA,0.241
CATCCATA,-0.0607
ATTATACG,0.16
AAAACCGG,0.27
GACACCCA,-0.243
GAGCAAAA,-0.197
AGCCTGGC,-0.123
GACCCGCA,0.289
AGCTTTGG,-0.235
GAGCCTGA,0.0101
CGAAACAC,0.0134
CTTTCTTA,-0.0822
GACCAGTC,-0.109

# Set 3
# Target: CCNA1, cyclin fold, Cln2 fusion (human)
# Method: yeast growth competition, sequencing
# Medium: yeast
# Notes: weak parent motif
# Relative to: not given
# Reading: higher = stronger binding
# Starting sequence: SAMHD1 docking peptide (human); ASKSRVQLFKDDP
Variant,normalised enrichment score
ASKSRVQYFKDDP [L8Y],0.161
ASKSRVQLFKEDP [D11E],0.336
ASKSWVQLFKDDP [R5W],-0.0473
ASKSRVQLFKIDP [D11I],0.125
ASKSQVQLFKDDP [R5Q],0.328
ASKSRVQLFKDMP [D12M],0.344
ASKSRVQLAKDDP [F9A],0.0902
ASKSRVQLFKFDP [D11F],0.338
ANKSRVQLFKDDP [S2N],0.365
ASKSRVLLFKDDP [Q7L],0.137
ASTSRVQLFKDDP [K3T],-0.244
ASKSRVQLFKDHP [D12H],0.374
AYKSRVQLFKDDP [S2Y],0.59
ASKSRVQLVKDDP [F9V],0.46
ASKSDVQLFKDDP [R5D],0.0688
AHKSRVQLFKDDP [S2H],0.695
ASKSRVQLFIDDP [K10I],0.262
ASKSRVQCFKDDP [L8C],0.534
ASKSRVYLFKDDP [Q7Y],0.478
ASKSRVQLSKDDP [F9S],0.475

# Set 4
# Target: Interferon regulatory factor 7, full length, phosphomimetic (IRF7, Homo sapiens, UniProt Q92985, residues 1-503, S471D/S472D/S475D/S476D/S477D/S483D/S484D/S487D)
# Method: protein-binding microarray
# Molecule type: double-stranded DNA, one strand shown
# Medium: in vitro
# Concentration: 2200 nM top
# Notes: 60-bp whole probe
# Together with: salmon DNA 0.4 mg/ml
# Relative to: random background probes
# Reading: higher = stronger binding
# Constant ends, left off below: GCCTAGCAC … GTCTTGATTCGCTTGACGCTGCTG
# Target sequence (chain): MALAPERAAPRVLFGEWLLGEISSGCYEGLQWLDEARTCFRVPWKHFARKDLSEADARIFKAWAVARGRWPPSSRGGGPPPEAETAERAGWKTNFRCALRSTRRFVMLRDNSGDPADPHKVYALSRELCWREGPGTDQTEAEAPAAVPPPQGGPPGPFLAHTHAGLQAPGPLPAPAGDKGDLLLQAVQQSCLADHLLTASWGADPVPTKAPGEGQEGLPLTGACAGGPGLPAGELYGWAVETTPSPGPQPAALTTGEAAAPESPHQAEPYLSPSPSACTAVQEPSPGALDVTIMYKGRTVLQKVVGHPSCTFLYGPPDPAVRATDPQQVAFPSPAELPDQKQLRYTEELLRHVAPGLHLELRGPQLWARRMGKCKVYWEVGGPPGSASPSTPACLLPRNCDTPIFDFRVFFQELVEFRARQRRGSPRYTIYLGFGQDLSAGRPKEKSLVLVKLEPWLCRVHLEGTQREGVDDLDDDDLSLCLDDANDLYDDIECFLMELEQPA
Oligonucleotide,fitted relative affinity [z-score]
GGCTGTTTGGTCCTGAACCTGTGCTAG,0.106
GACGGACTGCTACTGCTGATGTGCTAG,-0.257
GACGATTCCAGTTTCGCGACGTGCTAG,2.7
GACGGTTACCTTATCCTGACGTGCTAG,0.863
TTAGGTAGCGGTCTCGGTTAGTGCTAG,0.0207
TTAGGTCTCCTTATCGTTTAGTGCTAG,0.994
TTAGATCTGGGGTTTCGATTAGTGCTA,2.48
GACGATTCCAGTGTCGAGACGTGCTAG,0.467
TTAGGTCTCGGTTTCGGTCAGTGCTAG,4.12
CACGAACTGGGGTATCGAGACGTGCTA,-0.239
TTAGGTTTCGGTCTCGGTTAGTGCTAG,6.63
TCACATTTTTTTTTTCAACTGTGCTAG,1.67
GACGTACTGGACACTGGGGACGTGCTA,-0.421
TCAGATTTCCTTCACCCACTGTGCTAG,2
GTTTTTCTCCTATTTAAGACGTGCTAG,2.63
GACGGTTGCGACTTTCGGGACGTGCTA,3.28
TTGGGTTTCCTTCTCCTTTAGTGCTAG,2.38
GACGATCTCAGCATCGAGACGTGCTAG,-0.0648
AACGGACTGGGTATCGGGACGTGCTAG,-0.683

# For quick reference, copied from above (set 2):
Oligonucleotide,E-score
GAGCAAAA,-0.197
AGTGTCAC,-0.0742
AGCTTTGG,-0.235
ATTATACG,0.16
CGGCGAAA,0.302
CTTTCTTA,-0.0822
CGAAACAC,0.0134
ATCGGCAC,0.246
GACCAGTC,-0.109
GACACCCA,-0.243
